Measurements gathered from unrelated publications.
Protocols differ between the studies behind these lines. ± gives the spread as reported.
Cell line: MCF7

The IC50 of `COc1ccc2cc3[n+](cc2c1OCc1cn(Cc2ccc(Cl)cc2)nn1)CCc1cc2c(cc1-3)OCO2` is reported as 45.9 µM (cell growth or viability, MTT).
`CCN(CC)c1ccc2c(c1)[O][Pd]([CH2]C#N)[N](C1CCCCC1)c1ncccc1N=C2` gave an IC50 of 38.6 µM (cell growth or viability, MTT; 48 h).
The IC50 of `CC(=O)[O][Pt]1([O]C(C)=O)[O]C(=O)C(=O)[O]1.NC1CCCCC1N` is reported as 46.6 ± 1.48 µM (cytotoxicity; 72 h).
`COc1ccc(NC(=O)CCc2nc3cc(Cl)ccc3[nH]c2=O)cc1` has an IC50 of 4.61 µM (cell growth or viability, MTT).
`CC(C)=CCC1=C([O-])C(=O)c2ccccc2C1=O.CC(C)=CCC1=C([O-])C(=O)c2ccccc2C1=O.Cc1cc2cccnc2c2ncccc12.[Cu+2]` gave an IC50 of 2.6 ± 0.1 µM (cell viability, MTT; 24 h).
`CCC1=C(CC)C2=[N+]3C1=Cc1c(CC)c(CC)c4[n]1[Ir-3]31([n+]3ccccc3)([n+]3ccccc3)[n]3c(c(CC)c(CC)c3=CC3=[N+]1C(=C4)C(CC)=C3CC)=C2.Cl` gave an IC50 of 0.12 µM (cell growth or viability, MTT; 72 h).
With `Oc1ccc2c(c1)[O][Pt-2]1([Cl])[N+](=C2)c2ccccc2[NH+]1c1ccccc1` (stereo not shown) the IC50 was 66.9 µM (cell growth or viability, MTT).
With `CC(=O)[O][Ag]=[c]1n(C)ccn1CC(O)c1ccccc1` (stereo not shown) the IC50 was 18.4 ± 0.6 µM (cell viability, MTT; 72 h).
`COCC[n+]1cn(C2CCCC2)c2ccccc21` gave an IC50 of 29 µM (cell growth or viability, MTT; 48 h).
With `C/C1=C/C[C@H]2[C@@H]3[C@@H]([C@]4(C)CO4)CC[C@@]3(C)CC[C@]2(C)C[C@H]2[C@@H](C)CC[C@@H]12` the IC50 was 117 µM (cell growth or viability, MTT; 72 h).
The IC50 of `O=C(/C=C/c1ccc2c(c1)C(=O)N(CCCc1ccccc1)CC2)NO` is reported as 0.93 ± 0.317 µM (cell growth, SRB; 72 h).
With `CSc1nc(Nc2ccc(C(=O)N/N=C/c3ccccc3Cl)cc2)c(C#N)c(-c2ccccc2)n1` the IC50 was 28.7 µM (cell growth or viability, MTT; 48 h).
The IC50 of `C[C@@H]1CC[C@@H]([C@@](O)(CNCc2ccc(F)cc2)COCc2ccccc2)[C@H](OCc2ccccc2)C1` is reported as 2.6 µM (cell growth or viability, MTT; 72 h).
`O=C(NCCNc1n[n+]([O-])c2ccccc2[n+]1[O-])C(F)(F)F` gave an IC50 of 50 ± 5.2 µM (cytotoxicity, MTT; 24 h, normoxia).
For `CC(=O)OC[C@H]1O[C@@H](Sc2nnc(-c3cc4ccccc4[nH]3)n2-c2ccc(Cl)cc2)[C@H](OC(C)=O)[C@@H](OC(C)=O)[C@@H]1OC(C)=O`, the IC50 was 19.6 µM (cell growth or viability, MTT).
The IC50 of `O=C(NN=Cc1ccc(O)cc1)Nc1cc2c(Nc3ccc(F)c(Cl)c3)ncnc2cc1OC1CCOC1` (stereo not shown) is reported as 0.91 µM (cell growth or viability, MTT; 72 h).
For `CCC(C(=O)O)C1CCC(C)C(C(C)C(O)C(C)C(=O)C(CC)C2OC3(C=CC(NCc4cn(COC(=O)C(C)(C)C)nn4)C4(CCC(C)(C5CCC(O)(CC)C(C)O5)O4)O3)C(C)CC2C)O1` (stereo not shown), the IC50 was 2.91 µM (cell growth or viability, resazurin; 72 h).
`CCNC(=S)N/N=C(\C)c1c(O)c2ccccc2oc1=O` gave an IC50 of 22.7 µM (cell growth or viability, MTT; 48 h).
With `CNC(=O)c1c(C)oc2cc(Oc3ncnc4cc(OC)c(OCCCCCCC(=O)NO)cc34)ccc12` the IC50 was 17.9 µM (cell growth or viability, CCK-8; 48 h).
For `O=[N+]([O-])[O-].[NH3+][Pt-2]1([NH3+])[O]C(c2ccccc2)=CC(c2ccccc2)=[O+]1` (stereo not shown), the IC50 was 3.1 µM (cell growth or viability, MTT).
The IC50 of `FC(F)(F)Sc1ccc(-c2noc(-c3cccs3)c2C(F)(F)F)cc1` is reported as 25.2 µM (cell growth or viability, MTT; 48 h).
With `CCCCn1cc(C(=O)O)c(=O)c2cc(F)c(Nc3ccc(OC)cc3)c(N)c21` the IC50 was 6.45 µg/mL (cell growth or viability, SRB; 72 h).
The IC50 of `C=CC(OC(C)=O)c1ccccc1` (stereo not shown) is reported as > 50 µM (MTT; 24 h).
`COc1c(O)cc2oc3cc4c(c(O)c3c(=O)c2c1CC=C(C)C)CC(O)O4` (stereo not shown) has an IC50 of 19.8 µM (cell growth or viability; 48 h).
The IC50 of `CC(=O)OC[C@H]1O[C@@H](N2C(=O)/C(=C/c3ccc4c(c3)OCCO4)SC2=S)[C@H](OC(C)=O)[C@@H](OC(C)=O)[C@@H]1OC(C)=O` is reported as 6.1 µM (cell growth or viability, MTT; 48 h).
`COc1ccc2cc3[n+](cc2c1OCc1cn(Cc2ccc(Cl)cc2Cl)nn1)CCc1cc2c(cc1-3)OCO2` has an IC50 of 28.2 µM (cell growth or viability, MTT).
With `CC(=NN=c1sc(C(=O)c2ccccc2)nn1-c1ccccc1)c1ccc(S(=O)(=O)N2CCC(C)CC2)cc1` the IC50 was 4.29 µM (cell growth or viability, MTT).
`CC1=NN(c2ccccc2)C(c2ccccc2)C1` (stereo not shown) gave an IC50 of 7.5 µM (cell growth or viability, LDH; 48 h).
The IC50 of `C=CCc1ccc(OCc2nnc(SCC(=O)Nc3ccc(Cl)cc3Cl)o2)c(OC)c1` is reported as 10.7 µM (cell growth or viability, MTT; 72 h).
The IC50 of `O=C(c1ccc2ccccc2c1)c1cn(-c2ccccc2)nc1C1=Nn2c(CCCc3nnc4n3N=C(c3nn(-c5ccccc5)cc3C(=O)c3ccc5ccccc5c3)CS4)nnc2SC1` is reported as 9.15 µM (cell growth or viability, MTT; 48 h).
`COc1c(O)cc2oc3cc4c(c(O)c3c(=O)c2c1CC(O)C(C)(C)O)CC(O)O4` (stereo not shown) gave an IC50 of > 40 µM (cell growth or viability; 48 h).
`COc1ccc(-c2noc(NC(=O)c3ccc(F)c(C(F)(F)F)c3)c2C#N)c(OC)c1` gave an IC50 of 14.7 µM (cytotoxicity, MTT; 72 h).
`N[C@@H](Cc1c[nH]c2ccccc12)C(=O)NC(CC(=O)N[C@@H](Cc1ccccc1)C(=O)O)c1ccc2ccccc2c1` (stereo partly shown) has an IC50 of > 100 µM (cell growth or viability, ATP luminescence; 72 h).
`CC(C)Cc1ccc(C(C)C(=O)[O][Re-2]2(=[C]=O)(=[C]=O)(=[C]=O)[n+]3ccc(-c4ccccc4)c4ccc5c(-c6ccccc6)cc[n+]2c5c43)cc1` (racemic) gave an IC50 of 0.958 µM (cell growth or viability, resazurin; 72 h).
`COC(=O)C1CN1S(=O)(=O)c1ccc2c(C=O)c(N(C)C)ccc2c1` (stereo not shown) has an IC50 of 20 µM (cell growth or viability, MTT; 48 h).
For `Cc1cc(N2CCN(C(=O)CN3CCCCC3)CC2)n2ncnc2n1`, the IC50 was 67.3 µM (cell growth or viability, MTT).
The IC50 of `COc1cc(OC)c(/C=C/C(=O)c2c(OC)cc(OC)cc2OC)c(OC)c1` is reported as > 100 µM (cell growth or viability, MTT; 48 h).
With `NS(=O)(=O)c1ccc(/N=N/c2ccc(O)c(/C=N/CCc3c[nH]c4ccccc34)c2)cc1` the IC50 was 5.89 µM (cell growth or viability, MTT; 72 h).
`COc1cc(C(=O)c2[nH]c(N)nc2-c2cccs2)cc(OC)c1OC` gave an IC50 of 0.121 µM (cell growth or viability, SRB).
`NS(=O)(=O)c1ccc(/N=N/c2ccc(O)c(C=O)c2)cc1` has an IC50 of 8.44 µM (cell growth or viability, MTT; 48 h).
The IC50 of `O=C(NNc1nc(-c2ccccc2)cs1)c1cc2ccc(O)cc2oc1=O` is reported as 10 µM (cell growth or viability, SRB; 72 h).
The IC50 of `CC(=O)OC[C@H]1O[C@@H](Sc2nc3c4cnn(C(=O)CNc5ccc(C)cc5)c4ncn3n2)[C@H](OC(C)=O)[C@@H](OC(C)=O)[C@@H]1OC(C)=O` is reported as 0.045 µM (cell growth or viability, MTT; 48 h).
With `CN1CCCC1CCO/N=C1/C=C2CCC3C(CC[C@]4(C)/C(=C/c5ccccn5)CCC34)[C@@]2(C)CC1` (stereo partly shown) the IC50 was 7 µM (cell growth or viability, MTT; 72 h).
`COC(=O)CNc1cc(C[S+]([O-])c2ccc3ccccc3c2)ccc1OC` (stereo not shown) has an IC50 of 5.77 µM (cell growth or viability, MTS; 48 h).
The IC50 of `CC(C)c1cccc(C(C)C)c1-n1ccn(-c2c(C(C)C)cccc2C(C)C)c1=[Se].[Cl][Au]` is reported as 7.4 µM (cell growth or viability, MTT; 72 h).
For `CN1CCC2(CC1)C/C(=N\NC(=O)Nc1ccc(Cl)cc1)c1ccccc1O2`, the IC50 was 2.9 µM (cell growth or viability, MTT; 48 h).
The IC50 of `CCCCCCOc1c(O)cc(C(=O)O[C@@H]2Cc3c(O)cc(O)cc3O[C@@H]2c2cc(O)c(O)c(O)c2)cc1O` is reported as 50.5 µM (cell growth or viability, CCK-8; 24 h).
With `COc1ccc([C@@H]2COc3cc(O)ccc3C2)c(OC)c1` the IC50 was 36.4 µM (cell growth or viability, MTT; 72 h).
For `CCCCCCCCCCn1c(-c2cccnc2)nc(-c2ccc(C)cc2)c1-c1ccc(C)cc1`, the IC50 was > 100 µM (cell growth or viability, SRB; 24 h).
The IC50 of `C1=CCC=C1.[Cl][Pd-2]1([Cl])[N+](=P(c2ccccc2)(c2ccccc2)C2C=CC=C2)Cc2cccc[n+]21.[Fe+2]` is reported as 10.2 µM (cell growth or viability, MTT; 74 h).
`O=C(CN1CCC(c2noc3cc(F)ccc23)CC1)N1CCC(=C2c3ncccc3CCc3cc(Cl)cc(Br)c32)CC1` gave an IC50 of 45 µM (cell growth or viability, SRB).
For `COc1ccc(CNC[C@@](O)(COCc2ccccc2)[C@@H]2CC[C@@H](C)C[C@H]2OCc2ccccc2)cc1`, the IC50 was 2.1 µM (cell growth or viability, MTT; 72 h).
`CSC(=S)N/N=C(\C)c1ccc(S(=O)(=O)N2CCC(C)CC2)cc1` has an IC50 of 3.53 to 5.58 µM (cell growth, MTT).
The IC50 of `CCCCn1c(-c2cccnc2)nc(-c2ccc(C)cc2)c1-c1ccc(C)cc1` is reported as > 100 µM (cell growth or viability, SRB; 48 h).
`CCCCCCCCCCCCCCCC(=O)Oc1ccc(CO)cc1OC(=O)c1ccccc1` gave an IC50 of 4.7 ± 0.3 µg/mL (cell viability, MTT; 48 h, serum-free medium).

Excerpt of the above:
With `CN1CCCC1CCO/N=C1/C=C2CCC3C(CC[C@]4(C)/C(=C/c5ccccn5)CCC34)[C@@]2(C)CC1` (stereo partly shown) the IC50 was 7 µM (cell growth or viability, MTT; 72 h).
For `CC(=O)OC[C@H]1O[C@@H](Sc2nnc(-c3cc4ccccc4[nH]3)n2-c2ccc(Cl)cc2)[C@H](OC(C)=O)[C@@H](OC(C)=O)[C@@H]1OC(C)=O`, the IC50 was 19.6 µM (cell growth or viability, MTT).
The IC50 of `O=C(/C=C/c1ccc2c(c1)C(=O)N(CCCc1ccccc1)CC2)NO` is reported as 0.93 ± 0.317 µM (cell growth, SRB; 72 h).
The IC50 of `CC(=O)[O][Pt]1([O]C(C)=O)[O]C(=O)C(=O)[O]1.NC1CCCCC1N` is reported as 46.6 ± 1.48 µM (cytotoxicity; 72 h).
